Assay results pooled from the literature.
A part holds a random share of what one study measured. Substitutions count along the parent as printed.

Block 1 — method: RNA Bind-n-Seq; molecule type: RNA; matrix: in vitro; tested at: 365 nM; reference: no-protein control; reading: higher = stronger binding
Target: RNA binding protein fox-1 homolog 2, RRM domain, GST-SBP tag (RBFOX2, Homo sapiens, UniProt O43251-10, residues 100-194)
Notes: natural RNA segment, single round, ends assumed
Residues (chain): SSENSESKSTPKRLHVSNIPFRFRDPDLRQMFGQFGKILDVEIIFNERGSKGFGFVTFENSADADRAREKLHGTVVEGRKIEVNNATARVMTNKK
Under “RBNS enrichment (R)”, `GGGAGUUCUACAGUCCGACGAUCCGAAAUAUGGCCAAAGAUGUGCAGAACACAUUCUAUGACAUCGUGGCCGAGUUUGGGCCCAUGGAGCACACCCAGGCUGUGGACUAUGUUAAGAAGCUCAUGACCAAGGGUGGAAUUCUCGGGUGCCAA` is recorded as 0.233.
`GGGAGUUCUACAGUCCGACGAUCGUUCUAAAACGGGGAGUGGUCUGAAUGAACACAGCUGACCCCUUUCCCGCGCACUGAAAGGGCAGAGUAGGCCGAAGGGUCCAAGGGCCAGACUGCCUCACCCUCUGCCCUGGAAUUCUCGGGUGCCAA`: “RBNS enrichment (R)” 0.177.
For `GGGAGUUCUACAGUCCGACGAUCAGGGCCUAAGGUCCACUGGACAGUUGGGAAAACACCUGACCACCAUUUAAGGACUCUAAGCCAGAAUGGAAAAUUCACCAGGACUCCAUUCUUAAGCCUAUGCGAGUCCCUGGAAUUCUCGGGUGCCAA`, “RBNS enrichment (R)” read 0.258.
For `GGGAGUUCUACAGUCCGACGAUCUUUAUUUUUUUUCUGUAACUGUGCUUGUUGAAUGUCAAUCAUAUUUAAAGGGAAUGACUUUGAAGUAAAACCUUUUUUCUUGCUACUGAAAAAAAUGGAGUUGUUUUGGGUGGAAUUCUCGGGUGCCAA`, “RBNS enrichment (R)” read 2.35.
`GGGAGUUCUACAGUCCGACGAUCCUGCAGAGCUGGAUCCUCAGGAGGAUAGCGAAUUAUUUUCAACCCUGGAAUAGAAACCACACACUGGCUUGCUGUGCACCAGCCACUUUGCAUCUAAUCCAAGCUUUGAAUGGAAUUCUCGGGUGCCAA`: “RBNS enrichment (R)” 0.379.
Under “RBNS enrichment (R)”, `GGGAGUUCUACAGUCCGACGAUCAUCAGAAGUAUAAUGAAGUUGGAAUAAAUUCUUUAAAGUUUACUAUGUUGCCAGUGGUUUCACACAAAUUCCCUUGUAUUUAUUUGUUGAUUAAAUCAAGUGAGAAAGGUUGGAAUUCUCGGGUGCCAA` is recorded as 0.697.
`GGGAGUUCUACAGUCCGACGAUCGGGAAGUGACAUAAAGUGAGGUCGCCCUUGCUAAGUCCUGCUGUCCUCUCUAGAGCCUUCCUCAGAGCUGUGCAAGCAUGGGAGCCUCUCCUUGCUCCUCCCAGUCCUGCUGGAAUUCUCGGGUGCCAA`: “RBNS enrichment (R)” 0.656.
`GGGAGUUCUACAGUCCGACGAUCGAGGGGCUUCAGCCUGUCCCGGGGUUGCCUGAGGCAGAGCAAGACGGGUUCUCACCCCUGACUUCUGGAGGCUUCCCUUGAAGCUCUGUGCAAAAGGUGGGAGACAGAGCUGGAAUUCUCGGGUGCCAA` — result for “RBNS enrichment (R)”: 0.388.

Block 2 — method: protein binding microarray; molecule type: double-stranded DNA, one strand shown; matrix: in vitro; tested at: not given; reference: not given; reading: higher = stronger binding
Target: Histone acetyltransferase KAT6A, both winged helices, GST fusion (KAT6A, Homo sapiens, UniProt Q92794, residues 1-181)
Notes: 8-mer, flanks averaged, mean of 2 arrays, mostly near background
Construct (chain): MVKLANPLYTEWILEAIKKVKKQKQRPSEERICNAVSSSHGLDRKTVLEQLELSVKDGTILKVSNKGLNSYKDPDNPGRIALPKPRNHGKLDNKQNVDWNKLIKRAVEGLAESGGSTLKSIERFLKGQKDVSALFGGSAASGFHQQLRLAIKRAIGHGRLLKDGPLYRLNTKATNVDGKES
For `CGTTCTTA`, the E-score was 0.029.
`CAAGACGA` gave an E-score of -0.0666.
`CCGTCCAA` has an E-score of 0.108.
With `CGTCCAAG` the E-score was 0.136.
`AGTGTGTA` gave an E-score of -0.0283.
With `CAATGATA` the E-score was -0.0817.
For `AACATTGT`, the E-score was 0.0719.
With `CCCCTTCC` the E-score was -0.12.
For `CACCAGTG`, the E-score was -0.137.
`CGACGTTA` gave an E-score of 0.113.
`CAACTAGG` has an E-score of -0.144.
The E-score of `CTAGCTAG` is reported as -0.0313.
With `ATCACATC` the E-score was -0.0891.
`ATGTTTTA` gave an E-score of -0.141.
`CGTGCAGC` gave an E-score of 0.122.
`CACCCCAC` has an E-score of -0.118.
`CAACTCTA` gave an E-score of -0.155.
`ATAACTCC` has an E-score of -0.0548.
The E-score of `CCAGCACC` is reported as -0.156.
`ATGCTCTC` has an E-score of -0.164.
`GCCCATAA` gave an E-score of 0.134.
`ACTTCAAT` gave an E-score of -0.0162.
With `AAAATATA` the E-score was -0.0254.
The E-score of `ACGCTTAT` is reported as 0.0729.
For `ACTCAAAA`, the E-score was -0.093.

Block 3 — target: CCNA1, cyclin fold, Cln2 fusion (human); method: yeast growth competition, sequencing; matrix: yeast; notes: weak parent motif; reference: not given; reading: higher = stronger binding
Parent: WEE1 docking peptide (human); CTLRQKLIFSPCS; partner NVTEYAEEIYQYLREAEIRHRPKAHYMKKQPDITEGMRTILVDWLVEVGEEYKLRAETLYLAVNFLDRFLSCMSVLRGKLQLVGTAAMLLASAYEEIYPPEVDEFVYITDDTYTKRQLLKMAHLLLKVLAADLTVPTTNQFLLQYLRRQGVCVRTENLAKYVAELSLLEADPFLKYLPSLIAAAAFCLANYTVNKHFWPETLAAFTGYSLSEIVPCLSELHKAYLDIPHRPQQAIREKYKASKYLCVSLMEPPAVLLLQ
`Q5A` — result for “normalised enrichment score”: -0.0143.
Under “normalised enrichment score”, `R4A` is recorded as -0.365.
For `L3A`, “normalised enrichment score” read -0.215.
`K6A` — result for “normalised enrichment score”: -0.0818.
`L7A`: “normalised enrichment score” -0.0585.
`S13A`: “normalised enrichment score” -0.243.

Block 4 — method: protein-binding microarray; molecule type: double-stranded DNA, one strand shown; matrix: in vitro; tested at: 2540 nM top; notes: 60-bp whole probe; together with: salmon DNA 0.4 mg/ml; reference: random background probes; reading: higher = stronger binding; all sequences stand within: GCCTAGCAC … GTCTTGATTCGCTTGACGCTGCTG
Target: Interferon regulatory factor 3, full length, phosphomimetic (IRF3, Homo sapiens, UniProt Q14653, residues 1-427, S386D/S396D/S398D/S402D/T404D/S405D)
Residues (chain): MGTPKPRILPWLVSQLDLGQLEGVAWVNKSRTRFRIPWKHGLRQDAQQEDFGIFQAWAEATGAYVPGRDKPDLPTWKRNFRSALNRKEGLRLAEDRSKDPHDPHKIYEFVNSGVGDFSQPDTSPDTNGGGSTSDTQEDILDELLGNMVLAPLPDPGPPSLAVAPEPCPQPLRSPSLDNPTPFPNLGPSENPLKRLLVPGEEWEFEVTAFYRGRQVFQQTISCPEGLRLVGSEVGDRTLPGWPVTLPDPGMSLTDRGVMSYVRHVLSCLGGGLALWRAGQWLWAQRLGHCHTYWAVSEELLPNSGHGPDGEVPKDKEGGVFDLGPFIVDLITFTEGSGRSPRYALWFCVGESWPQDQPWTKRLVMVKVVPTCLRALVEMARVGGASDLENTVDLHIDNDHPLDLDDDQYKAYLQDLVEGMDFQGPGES
`GACGAACTGGGGACTGGGGACGTGCTA`: “fitted relative affinity” -0.65 z-score.
Under “fitted relative affinity”, `TTAGGTCTCCTTATCTTTTAGTGCTAG` is recorded as 2.24 z-score.
`TTAGGACTGGCCTATCGGTTAGTGCTA`: “fitted relative affinity” -0.801 z-score.
Under “fitted relative affinity”, `CGCCCTCTCAACCATCCTGGGGTGCTA` is recorded as 0.13 z-score.
`AATCTTTTCACTTTCTTTAAGTGCTAG`: “fitted relative affinity” 2.94 z-score.
Under “fitted relative affinity”, `TTAGGACTGGGGTTTCGGTTTGTGCTA` is recorded as 3.69 z-score.
`TTAGATCTCAATCTCGATTAGTGCTAG`: “fitted relative affinity” 0.805 z-score.
For `CTAGATCTCAGACTGGATTAGTGCTAG`, “fitted relative affinity” read 0.0742 z-score.
`GACTGTTTCCTTTCCCTGACGTGCTAG` — result for “fitted relative affinity”: 9.17 z-score.
`TTAGTTATCGGGTTTCGATTAGTGCTA`: “fitted relative affinity” 2.46 z-score.
`TTTGGTTTCGGTTTCGGTTAGTGCTAG`: “fitted relative affinity” 12.1 z-score.
Under “fitted relative affinity”, `TTAGGTATCGTACTGGGTTAGTGCTAG` is recorded as 0.931 z-score.
`TCATATCTCTGTTTTTGACTGTGCTAG`: “fitted relative affinity” 1.37 z-score.
`TGTAGAGTAGCTTTCTGAGGGTGCTAG` — result for “fitted relative affinity”: -0.353 z-score.
For `TTAGATATCGGGTTTCTATTAGTGCTA`, “fitted relative affinity” read 0.807 z-score.
`TTAGGTCTCCTTATACTTTAGTGCTAG` — result for “fitted relative affinity”: 2.21 z-score.
`TCATCTTCTCCTCTAGGACTGTGCTAG`: “fitted relative affinity” 1.13 z-score.
`TTAGGTATCCTTATACTTTAGTGCTAG`: “fitted relative affinity” 4.46 z-score.

Mixed results
`PhoQ, residues 284 288 289 292 302 303 DDMDFR` has a fold induction of 1.2 (PhoP, residues 12 14 15 18 19 SGWQI (Escherichia coli, UniProt P23836); Sort-seq, refers to: YFP reporter; E. coli; PhoQ-PhoP variant library, together with: 10 µM Mg2+; reference: high Mg2+ state, higher = stronger signaling).

A few entries again (block 1):
`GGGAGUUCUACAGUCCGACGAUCGUUCUAAAACGGGGAGUGGUCUGAAUGAACACAGCUGACCCCUUUCCCGCGCACUGAAAGGGCAGAGUAGGCCGAAGGGUCCAAGGGCCAGACUGCCUCACCCUCUGCCCUGGAAUUCUCGGGUGCCAA`: “RBNS enrichment (R)” 0.177.
For `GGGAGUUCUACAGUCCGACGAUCAGGGCCUAAGGUCCACUGGACAGUUGGGAAAACACCUGACCACCAUUUAAGGACUCUAAGCCAGAAUGGAAAAUUCACCAGGACUCCAUUCUUAAGCCUAUGCGAGUCCCUGGAAUUCUCGGGUGCCAA`, “RBNS enrichment (R)” read 0.258.
For `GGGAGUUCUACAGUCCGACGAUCUUUAUUUUUUUUCUGUAACUGUGCUUGUUGAAUGUCAAUCAUAUUUAAAGGGAAUGACUUUGAAGUAAAACCUUUUUUCUUGCUACUGAAAAAAAUGGAGUUGUUUUGGGUGGAAUUCUCGGGUGCCAA`, “RBNS enrichment (R)” read 2.35.
`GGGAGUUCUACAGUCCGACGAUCCUGCAGAGCUGGAUCCUCAGGAGGAUAGCGAAUUAUUUUCAACCCUGGAAUAGAAACCACACACUGGCUUGCUGUGCACCAGCCACUUUGCAUCUAAUCCAAGCUUUGAAUGGAAUUCUCGGGUGCCAA`: “RBNS enrichment (R)” 0.379.
Under “RBNS enrichment (R)”, `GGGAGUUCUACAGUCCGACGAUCAUCAGAAGUAUAAUGAAGUUGGAAUAAAUUCUUUAAAGUUUACUAUGUUGCCAGUGGUUUCACACAAAUUCCCUUGUAUUUAUUUGUUGAUUAAAUCAAGUGAGAAAGGUUGGAAUUCUCGGGUGCCAA` is recorded as 0.697.
`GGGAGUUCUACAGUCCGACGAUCGGGAAGUGACAUAAAGUGAGGUCGCCCUUGCUAAGUCCUGCUGUCCUCUCUAGAGCCUUCCUCAGAGCUGUGCAAGCAUGGGAGCCUCUCCUUGCUCCUCCCAGUCCUGCUGGAAUUCUCGGGUGCCAA`: “RBNS enrichment (R)” 0.656.
`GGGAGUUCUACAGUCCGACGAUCGAGGGGCUUCAGCCUGUCCCGGGGUUGCCUGAGGCAGAGCAAGACGGGUUCUCACCCCUGACUUCUGGAGGCUUCCCUUGAAGCUCUGUGCAAAAGGUGGGAGACAGAGCUGGAAUUCUCGGGUGCCAA` — result for “RBNS enrichment (R)”: 0.388.
